Measurements from different studies.
Numbered parts are unrelated; each lists some results of a single study.

Block 1
Target: RNA binding protein fox-1 homolog 2, RRM domain, GST-SBP tag (RBFOX2, Homo sapiens, UniProt O43251-10, residues 100-194)
Method: RNA Bind-n-Seq
Form: RNA
Matrix: in vitro
Tested at: 365 nM
Notes: natural RNA segment, single round, ends assumed
Baseline: no-protein control
Direction: higher = stronger binding
All sequences stand within: GGGAGUUCUACAGUCCGACGAUC … UGGAAUUCUCGGGUGCCAA
Construct (chain): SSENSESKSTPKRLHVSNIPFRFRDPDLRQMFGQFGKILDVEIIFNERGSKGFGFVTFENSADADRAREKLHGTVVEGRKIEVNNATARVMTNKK
Sequence	RBNS enrichment (R)
ACUAGCACUAAUUUUAUUUGCAAUAUUUUUCUAUAAAACAAGUAGCUCUUGGAAAAGAGGUUUUCUUUUCUAAGCCGCCGUUCGUGACCUCUGACCUCUGGUUCUAUUUU	0.258
CCUCAGCCUGUCUGUGGCAGAGCCUGCACCAAAACCCAGAGCUUCUUCCCUCCGUGAGGGCCACGCUGUCACCACAGUCCUCCCAGAUGGGUUUUGGAUUAGCAUCAGUC	0.692
GCGCCUCAGCAGCACCCACCCCAGAGCCUCUUGGCAUGCCCAGCUUUCUUUUCAGUACAAGUAUUUGUAGUUUGUAAUGAAUGUGCCACAUACAGGUUUUGUAGCUUAUU	1.11
AAUACCAUUUGAAAUGGCAAGUCUUGGCUUAACGCCUGUUUGUAUGCCCAGCAUUCAGCUGUUUUACUCAAAGCUAGGCAUGUCAUAGUAAUUGUCUUUUCAGAUGGAAA	0.519
UGGGCAGUGCUGGCCUGUCUGACGUGCUGCCCUUGGCCUCCUUGCUCUCCACGUGUGGAAGCGCAUCUGCUUUCCUUGCUGUCUGUGCAAAUGCUGAACAAGGAGACAGA	3.36
UUCUGUCCCUGAGAACAUGACGUUUGUGACGUCCUACCCAUUGGGAGUCCUUCACACCCCAGCCAUCGCUGCCCACUCCCAGGAGGCCAGGGCAAGCCUGUGUGGACUGG	0.304
AGCUUCUUCACAGCCUGUUCAGCCUGGGCUCCUGGAGGACAGCCCUGGGGGAGGCAGUGAGGGGCAGCGCCAAGAUAGCCAGGUGGUUGGUUCCAGGACCACAGUGUCUU	0.531
CUGUGGCUUUCUUUUCCUAUUUUAUGAAAAAAAUGAUAAUCUUUUUGUAAAAUUGUCUGUGAAAUAUAAACAUUAAUAUAUAAAGAAAAACCUUGAAGUGCUGUAUAGUG	0.744
AUUUUCACGGGUGUGGGCACAUGGGUGUGGCACCUGGACGUGUGCAGCAUGUGGCGGUCUGUGUGAAGCCACCGUGCUUCUCUUUGGGGGGCCGCGAGAUCUAGCAUCUC	6.65
GCUCAGUGUGAGCGGUUUGCUGUUAGCCAGGGCUAUUUAUGGCAAACACAUGCUUUUGUAUCUUGUCAUAGUUAUCCACAAAUGGCAAAACUGGACUUGAUUCUACUGGU	0.288
AACUGUUUGAUUAUAGAAAAGACCCCAGACUCAGAGGGAAGGCUCUCUGGUCUACCUGAGAUCUAUAUGGAGCUUAAAGGAGGGUGAAUAAGAUUAAUGACCUGAAUUGA	0.376
UGGAGCUUUUAUACACUACAUUUCUUUUUUAUUAUUAUGAAGAAUGGGAUACCUCCAGGUUCCAGUAAAAUUCUUCUGACCGAAACCAAUGUGGGUGUUAGAAAAAUUAC	0.57

Block 2
Target: Interferon regulatory factor 5, full length, phosphomimetic (IRF5, Homo sapiens, UniProt Q13568-2, residues 1-514, S451D/S453D/S456D/S462D)
Method: protein-binding microarray
Form: double-stranded DNA, one strand shown
Matrix: in vitro
Tested at: 940 nM top
Notes: 60-bp whole probe
Together with: salmon DNA 0.4 mg/ml
Baseline: random background probes
Direction: higher = stronger binding
All sequences stand within: GCCTAGCAC … GTCTTGATTCGCTTGACGCTGCTG
Sequence	fitted relative affinity [z-score]
TTAGGTCTCGGAATCGGTTAGTGCTAG	1.97
TCAAGAATCACAACTAGGACTGTGCTA	-0.267
GACGATTTCGGTTTCGGGACGTGCTAG	6.27
TTAGGTCTGGGTCTCGGTTAGTGCTAG	1.49
GACGGACTGGACAATGGGGACGTGCTA	-0.373
TTAGGTTTCGACCTTCGGTTAGTGCTA	8.26
GACGGTTCGCTTTTCCTGACGTGCTAG	0.349
CACGGTTTCCTACTGCTGACGTGCTAG	0.637
GCCGATATCAGTATCGAGACGTGCTAG	2.72
CACGGTTCCGGTTTCGGGACGTGCTAG	4.79
TTCGGACTGGGTTTCGGTTAGTGCTAG	7.08
TCAAGAATGTTTTTCATACTGTGCTAG	-0.0207
TTAGGACTGCTACTGGTTTAGTGCTAG	-0.738
TTAGGTTTCGGGTATCGGTTCGTGCTA	11
TGTACTCTCTCCATGTGTTTGTGCTAG	1.26
TTAGGTTTCGGTCTCGGTTCGTGCTAG	16
GACGATCTCAGACTGGAGAGGTGCTAG	-0.406
GACGGTGTCGACACTGGGGACGTGCTA	-0.0759

Block 3
Target: Prothrombin, mature alpha-thrombin (F2, Homo sapiens, UniProt P00734)
Method: aptamer microarray, sandwich
Form: DNA with 2'F-ANA
Matrix: in vitro
Tested at: 200 nM
Notes: whole 15-mer aptamer, many near background
Together with: Cy3 exosite-II aptamer, 400 nM
Direction: higher = stronger binding
Sequence: GGTTGGTGTGGTTGG
Modification	mean fluorescence intensity
2'F-ANA at 1 6 8 11 12 13 14 15	66.4 a.u.
2'F-ANA at 2 3 5 7 12 13 15	146 a.u.
2'F-ANA at 5 7 9 11 14	45.6 a.u.
2'F-ANA at 1 3 5 7 8 9 10 13 15	49.1 a.u.
2'F-ANA at 1 2 3 6 8 10 13 14 15	56.9 a.u.
2'F-ANA at 5 9 10 14 15	43.8 a.u.
2'F-ANA at 1 2 3 4 6 8 11 12 13 14	78.3 a.u.
2'F-ANA at 3 4 7 8 10 11 12 13	311 a.u.
2'F-ANA at 1 2 3 5 7 8 13 15	54.8 a.u.
2'F-ANA at 1 2 3 4 6 7 8 9 13 14 15	70.5 a.u.
2'F-ANA at 1 3 5 6 7 8 12	157 a.u.
2'F-ANA at 6 8 12 15	818 a.u.
2'F-ANA at 1 3 5 7 8 9 12 15	131 a.u.
2'F-ANA at 1 2 3 7 8 10	68.9 a.u.
2'F-ANA at 1 2 3 4 8 9 10 11 12 13 14	56.6 a.u.
2'F-ANA at 1 2 4 6 7 8 10 11 12 13	72.6 a.u.
2'F-ANA at 3 4 5 7 9 10	55.7 a.u.
2'F-ANA at 1 3 4 8 9 10 12 14	51.6 a.u.
2'F-ANA at 1 2 6 8 15	204 a.u.
2'F-ANA at 2 3 6 8 12 13	838 a.u.
2'F-ANA at 1 3 12 13 14	125 a.u.
2'F-ANA at 1 4 7 8 11 14 15	55.8 a.u.
2'F-ANA at 5 7 8 10 14	47.3 a.u.
2'F-ANA at 2 6 10 14 15	78.9 a.u.
2'F-ANA at 6 9 10 15	161 a.u.

Block 4
Target: RING finger protein unkempt homolog, zinc fingers 1-6, GST-SBP tag (UNK, Homo sapiens, UniProt Q9C0B0, residues 30-357)
Chain of UniProt Q9C0B0 (30-357, looked up): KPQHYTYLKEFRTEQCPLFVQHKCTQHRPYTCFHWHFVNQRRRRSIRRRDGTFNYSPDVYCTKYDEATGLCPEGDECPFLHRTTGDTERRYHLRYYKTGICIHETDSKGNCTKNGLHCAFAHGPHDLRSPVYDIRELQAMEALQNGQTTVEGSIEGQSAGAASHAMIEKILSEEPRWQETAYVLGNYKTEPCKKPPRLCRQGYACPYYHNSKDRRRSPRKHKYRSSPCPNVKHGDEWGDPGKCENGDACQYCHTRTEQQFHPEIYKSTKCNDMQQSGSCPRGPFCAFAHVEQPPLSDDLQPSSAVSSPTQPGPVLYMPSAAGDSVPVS
Method: RNA Bind-n-Seq
Form: RNA
Matrix: in vitro
Tested at: not given
Notes: RNA with constant flanks, human-mouse chimeric sites, ends assumed
Baseline: input RNA pool
Direction: higher = stronger binding
All sequences stand within: GGGAGUUCUACAGUCCGACGAUC … CAACAGAGGAUUGAGCAUCA
Sequence	bound/input enrichment [ratio]
GCACUUCUCAAAUACUGGCCAAAGACUCACAGUCCAAAAGAAGUAAUGUUCUUAAACGAAUUAGAAGAAAUUUUAGAUGUAAUUGAACCAUCAGAAUUUGUGAAGAUCAUGGAGCCUCUU	0.915
UCUGGCCACACUCGUGUGUAUGGUGUUUGCUUUGUGGACACUUCACUGGGCAAGUUUUUCAUCGGCCAGUUUUCGGAUGAUCGCCAUUGUUCCAGAUUUAGGACGCUAGUGGCUCACUAU	0.212
UACUCAACUUUCUUUCCACAUUUUGAAUUCCAAGACAUUAUUCCUCCAGAUGACUUCCUAACGAGUGAUGAAGAGCAAGAUUUGGUUUUAUUUGGAACUAUGAGAGGACAAGUUGUUGGA	0.139
AACUUUGUGCAUCGGUUUCCCUUUGUAGCUGUUUCAAUUGGCUUCCUUGUGAAUAAAGAGAUGGAGUUUGGAAUUGUGUACAGCUGUGUGGAAGAUAAGAUGUACACCGGCAGGAAAGGG	0.468
ACCAUUUUCGCGGUUCAGGCUUUGUGUGUAGUUCACUUACGGUAUUAAAUUAUUAUUCUGCUUAGCUUAUAAUAAGGAUUACAAUUGUUAAAGAGGUUACUGAAUGUUGUUAUUGUUCUU	1.08
UGUGAACUGUCUCUUGAGAUCUAAAAACAAGAUGACUUUUCCUGGCACAUAUUUCAAAGCAAAGACUUUGUUACCUGCUGCUUAUUGUCUAAUUUACAGGGAUAUUUAAUUUUGUCAGGU	0.162
GUGUCCUGCUUUCAACUUAAAUCACUGCAUUUUUACUACUGUUCUGUGAGCAUCAGGAUUUUAGUGCUGUGUCACCACAUGAGAGUUCAGAAGCAGCCUUUCUGUGGAGGGUGGGAAUGA	0.169
AAUAGAGGAUCCACCUCCCAAAGUGCUGGGAGUAAAGGUGUGGCCACCACACCUAACUUGAUGGAUAUAUAUUUUUUUUAAUAUGAAUGAACUCUUGCGUCCAGGGAAGAAAGAUUUGUU	0.854
GCUCCUCCCCGCUCUGCAGCCUGGGGACUUUUGGCAAGGACCAGAAUCCAGCUUUCUUUUAAAACUCUCAGUGUAACUGUAUCCCGUGACAUUUCAUUUUUUUUAAAUAGUGUAUUUUUU	4.21
CUGGCCUGGCCCUCCCCAGGGGCCUCCUUUCGUAUAGUCACUGCUUCUGCAUCAGAUACUUUCAGCUCCAAGUCCUGACUGGGUGGGGCACCUAUCUCAGGCAGAAGGUUUUGGUACCCU	0.177
GCGGCAGAAUCAUGGUGGACAUGAUGGAGCUCCCCAAAGCGCGCGUCAACGCCAGCAUGUUACCACAGUAUAUCGACCGGCCCGUGUGCUUCGUGGGGAAGCUGGAAAAGAUUCAUCCCA	0.141

Block 5
Target: Histone acetyltransferase KAT6A, winged helix 2, GST fusion (KAT6A, Homo sapiens, UniProt Q92794, residues 85-181)
Method: protein binding microarray
Form: double-stranded DNA, one strand shown
Matrix: in vitro
Tested at: not given
Notes: 8-mer, flanks averaged, mean of 2 arrays, mostly near background
Baseline: not given
Direction: higher = stronger binding
Target sequence (chain): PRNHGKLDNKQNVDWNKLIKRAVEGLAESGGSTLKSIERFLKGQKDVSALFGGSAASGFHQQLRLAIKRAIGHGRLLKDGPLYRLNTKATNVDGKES
Sequence	E-score
ATCGGAGG	0.00431
CCATGACC	-0.0504
CCGAACGG	0.272
ACGCTTGC	0.0474
CGGGGGCC	0.12
AGAGAAAT	0.0147
CTGGCACC	-0.0577
ACCCGCAG	0.221
TCCTCCAA	0.0739
CGTGCCCC	-0.0735
AGTATATG	-0.0789
CCCTCAAG	-0.0309
ACGTCTAC	-0.261
AGGCGTGG	-0.182
CAGTGCAA	0.0429
GTTTCTCA	0.0211

Some of these lines once more (block 3):
Modification	mean fluorescence intensity
2'F-ANA at 5 7 9 11 14	45.6 a.u.
2'F-ANA at 2 6 10 14 15	78.9 a.u.
2'F-ANA at 3 4 5 7 9 10	55.7 a.u.
2'F-ANA at 1 2 3 4 8 9 10 11 12 13 14	56.6 a.u.
2'F-ANA at 6 8 12 15	818 a.u.
2'F-ANA at 5 9 10 14 15	43.8 a.u.
2'F-ANA at 1 3 12 13 14	125 a.u.
2'F-ANA at 1 2 3 5 7 8 13 15	54.8 a.u.
2'F-ANA at 5 7 8 10 14	47.3 a.u.
